Assay results of several laboratories.
Parts stem from different laboratories: compare values within a part only. Substitutions count along the parent as printed.

Sample 1
Target: Histone acetyltransferase KAT6A, winged helix 2, GST fusion (KAT6A, Homo sapiens, UniProt Q92794, residues 85-181)
Technique: protein binding microarray
Form: double-stranded DNA, one strand shown
Matrix: in vitro
Concentration: not given
Notes: 8-mer, flanks averaged, mean of 2 arrays, mostly near background
Reference: not given
Reading: higher = stronger binding
Residues (chain): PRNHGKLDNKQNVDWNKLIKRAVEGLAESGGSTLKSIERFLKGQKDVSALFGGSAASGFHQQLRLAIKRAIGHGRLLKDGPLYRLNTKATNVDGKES
| Sequence | E-score |
| --- | --- |
| TACATCCA | 0.0386 |
| CGTAACCC | -0.114 |
| AGGCTGTA | -0.119 |
| GAAATCTA | -0.00429 |
| AGGGCGCC | 0.145 |
| ACCAGCCA | 0.0346 |
| AGAGTCTG | -0.148 |
| AATGAACC | 0.116 |
| CTATTGAC | -0.106 |
| TAGCGAGA | 0.0653 |
| CCGGGTAA | 0.0893 |
| AACCACAT | -0.124 |
| ATCGACAG | -0.0115 |
| TGCGAACA | 0.0407 |
| GTTTGTAA | 0.0218 |
| GGTAATAC | 0.0257 |
| CGGGTTTC | 0.245 |

Sample 2
Target: CRIPT, C-terminal peptide
Technique: DHFR complementation, deep sequencing
Matrix: yeast
Notes: single substitutions, model-inferred values
Reference: wild type
Reading: higher = weaker binding
Starting sequence: ERBIN, PDZ domain 1 (human); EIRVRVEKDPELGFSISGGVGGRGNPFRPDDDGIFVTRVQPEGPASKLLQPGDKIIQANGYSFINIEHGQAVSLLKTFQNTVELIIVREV; partner TKNYKQTSV
| Substitution | binding free energy change |
| --- | --- |
| F35G | 0.458 kcal/mol |
| R38F | 0.0902 kcal/mol |
| V4S | 0.618 kcal/mol |
| I2L | -0.0878 kcal/mol |
| I16A | 0.554 kcal/mol |
| K47E | 0.0398 kcal/mol |
| V72P | 1.76 kcal/mol |
| T81C | 0.12 kcal/mol |
| Y61I | 0.0379 kcal/mol |
| A58P | 0.901 kcal/mol |
| G43V | 0.778 kcal/mol |
| G21V | 0.596 kcal/mol |
| G22H | 0.366 kcal/mol |
| K54S | 0.879 kcal/mol |
| F63Y | 0.414 kcal/mol |
| P41M | 0.318 kcal/mol |
| T77I | 0.334 kcal/mol |
| G19A | 1.13 kcal/mol |
| D53T | 0.0826 kcal/mol |
| I86R | 1.5 kcal/mol |
| E1T | 0.107 kcal/mol |
| V6G | 1 kcal/mol |
| P26E | 0.94 kcal/mol |

Sample 3
Target: Ras GTPase-activating protein-binding protein 1, RRM domain (G3BP1, Homo sapiens, UniProt Q13283)
Sequence of UniProt Q13283 (whole entry, looked up): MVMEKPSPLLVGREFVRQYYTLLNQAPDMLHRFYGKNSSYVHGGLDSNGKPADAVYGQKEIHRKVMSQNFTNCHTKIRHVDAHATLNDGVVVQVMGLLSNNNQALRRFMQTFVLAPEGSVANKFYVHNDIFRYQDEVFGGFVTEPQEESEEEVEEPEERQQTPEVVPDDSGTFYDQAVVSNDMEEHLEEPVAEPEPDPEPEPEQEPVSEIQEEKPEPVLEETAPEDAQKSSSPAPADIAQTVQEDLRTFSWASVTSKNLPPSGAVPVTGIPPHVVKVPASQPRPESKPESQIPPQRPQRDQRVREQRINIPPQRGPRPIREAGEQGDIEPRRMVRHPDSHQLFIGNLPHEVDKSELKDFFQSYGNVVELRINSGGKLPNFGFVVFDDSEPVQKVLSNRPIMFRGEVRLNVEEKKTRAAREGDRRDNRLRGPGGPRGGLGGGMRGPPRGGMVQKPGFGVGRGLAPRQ
Technique: RNA Bind-n-Seq
Form: RNA
Matrix: in vitro
Concentration: 1 µM
Notes: whole 134-nt RNA, ends assumed
Added: 150 mM KCl
Reference: input library
Reading: higher = stronger binding
Shared flanks, not repeated: GGGAGUUCUACAGUCCGACGAUC … UGGAAUUCUCGGGUGUCAAGG
| Sequence | log2 enrichment |
| --- | --- |
| UGGCCCUGGUGGCAUGCGGUGAGGAAGAGGUGGCCUCAUGGAUCGUGGUGGUCCCGGUGGAAUGUUCAGAGGUGGCCGUGGUGGAGACAG | 0.842 |
| GUCCUGUGCUACACAUCGUAUGUACCGAAUCGGGUUUGGGUUUUUUUGGGUUUUUGGGAAAGUAUUAUGUUACGCCGUUCGGAUCUGCAC | 0.378 |
| UCAAGUCCUGUGCUACACAUCGUAUGUACCGAAUCGGGGAAAGGAAAGGAAAGGGAAAGUAUUAUGUUACGCCGUUCGGAUCUGCACUUC | -0.262 |
| CCUGUGCUACACAUCGUAUGUACCGAAUCGGCCCCCCCGGGCCCCCCCGGGGCCCCCCCGGAAAGUAUUAUGUUACGCCGUUCGGAUCUG | -0.585 |
| GUCCUGUGCUACACAUCGUAUGUACCGAAUCGGAAAAAGGGGAAAAAGGGGAAAAAGGGAAAGUAUUAUGUUACGCCGUUCGGAUCUGCA | 0.281 |
| CCUCAAGUCCUGUGCUACACAUCGUAUGUACCGAAUCGGUUGGGUUGGGUUGGAAAGUAUUAUGUUACGCCGUUCGGAUCUGCACUUCCA | -0.265 |
| UCAAGUCCUGUGCUACACAUCGUAUGUACCGAAUCGGGGUUGGUUGGGUUGGGGAAAGUAUUAUGUUACGCCGUUCGGAUCUGCACUUCC | 0.0839 |
| CAAGUCCUGUGCUACACAUCGUAUGUACCGAAUCGGAAAAAGGUUUGGUUUUUGGAAAGUAUUAUGUUACGCCGUUCGGAUCUGCACUUC | -0.232 |
| ACCAUGCAGGUGGGCAUCUUUGGGAAGUGGGGCAAGGGGGGGAUAGGGAGGGGGGUAACACUUUGGGAACAGGUGGUCCAAGGUCGUUUC | 0.917 |
| CAAGUCCUGUGCUACACAUCGUAUGUACCGAAUCGGGGUGGGGUUUGGGGAGGGGAAAGUAUUAUGUUACGCCGUUCGGAUCUGCACUUC | 1.4 |
| UGGGAGGUGGAUUUUGUUUAUUUUUUUAGCUCAUUUCCAGGGGUGGGAAUUUUUUUUUAAUAUGUGUCAUGACUAAAGUUGUUUUUGAAA | 1.4 |
| AGUCCUGUGCUACACAUCGUAUGUACCGAAUCGGAAAAAAAGGUUUGGAAAAAAAGGAAAGUAUUAUGUUACGCCGUUCGGAUCUGCACU | -0.171 |
| CAAGUCCUGUGCUACACAUCGUAUGUACCGAAUCGGGAAAAAAAGGGAGGGAGGGAAAGUAUUAUGUUACGCCGUUCGGAUCUGCACUUC | 0.817 |
| UAACUUUAGAGGAGGUUCUGAUGGAUAUGGCAGUGGACGUGGAUUUGGGGAUGGCUAUAAUGGGUAUGGAGGAGGACCUGGAGGUGGCAA | -0.73 |

Sample 4
Target: RNA binding protein fox-1 homolog 2, RRM domain, GST-SBP tag (RBFOX2, Homo sapiens, UniProt O43251-10, residues 100-194)
Technique: RNA Bind-n-Seq
Form: RNA
Matrix: in vitro
Concentration: 365 nM
Notes: natural RNA segment, single round, ends assumed
Reference: no-protein control
Reading: higher = stronger binding
Shared flanks, not repeated: GGGAGUUCUACAGUCCGACGAUC … UGGAAUUCUCGGGUGCCAA
Construct (chain): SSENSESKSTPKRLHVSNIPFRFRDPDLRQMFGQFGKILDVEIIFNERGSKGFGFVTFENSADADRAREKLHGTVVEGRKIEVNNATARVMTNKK
| Sequence | RBNS enrichment (R) |
| --- | --- |
| CCUACAUUCCCUGGCCUGGCUCUCCUGUAGCUCUCCUGGGGUUCUGGGAGUUCCCUGAACAUCUGUGUGUGUCCCCCUAUGCUCCAGUAUGGAAGAAUGGGGUGGAGGGU | 0.519 |
| GUUUGCACAAAGGAUUUGACGCCACAGGAGUGUGUGAGGAAGACAGGGCGGGCUGAGGGCAGAAGGCAGUGAGACAUUUAUCCACAGAACAGUCUCCCUCGUCCCACCCA | 0.363 |
| UACCACUUCUGCUGAGGAGACCACUUAAAAUUCAUUCCUGAGUUUCCACUGUGGGAGAAUACCCAUGGAAUAAGAUAAAAAAUUAAUUCCACACCCUAGUGUGUGUAAGU | 0.338 |
| GAUUGGAUGGAGUGGAUGUCUUCACUCAGUCUGCCAAUUCCCAUCCUAACCUCUUCUGGAAACACCCUAGCAUGUUUUCCCAGCUAGCUGGGUAUCCGUUCACCCAACCA | 1.42 |
| GAACUGAAUUUUUUGUCUGUUAAAUGAACUUGAUAGCUAAUAAAAAGACAACUAGCCAUCAAAAUCAUAUGUUUCUCUACAGAUUUAGUUCUUUAUAGAGGUACUUUUUA | 0.43 |
| AUGAAACGUGAUGAACGCACCUUAAUAAAUCCAGAUAUUAAAGUUGUAGACUUUGGUAGUGCAACAUAUGAUGACGAACAUCACAGUACAUUGGUAUCUACAAGACAUUA | 0.316 |
| UUACAGUCUUAUUUAACCAGGGGUCCUAACCACUAACAUUGUGACUUUGCUUUGAGACCUUUCCUCUCCUGGGUACUGAGGUGCUAUGAAGCCAACUGACAAAGAUGCAU | 0.52 |
| UAAUGAGACCCUGUCUCAAAAAAAGAAAAAAAAAUUUUUUGAAAUUUAGUAGGUUUUCACAAUUUUUUCUUUAGUAUAAUACAUAUUUUUCUAGCCGUUCUGAUCUGUAA | 1.61 |
| GUGUGCCUCCCCUGCCCUCGGCCCCUAGCUGAUUUCUCCCCUAGAUAUGGUGCACUGUUUCCCUGGGUGGCCUUCUUGUGGCCCCAUGGGCCACAGGGUGCAGGAACGUA | 0.403 |
| GUGAGCUCUGGUUAUUUUUCUCUUGUACCAUAUGAAAGUAUAUAAAAAUUAUCAAAAAGCUGAUGUGCAGGGAUAUUGCCUUAUUUGUCUGUAAAAAUGUAGCUCAGUAA | 0.713 |
| UCUCUGGGCCUCUAUUUCUCCAUUUGUAAAACAAGUGGCUGCAGUAGAUGAUGGCUGAGAGCCCUUCCUGUUCCCAGAUGCCUUGGUCCAAAGACCCCACCCCUCUGCUG | 0.222 |
| UUGUUGGGAUGACUGAUUGGGGCUAUCUGUUGUCAACAAGCGUCGUCUCCACCAUUGUGGAUGGAGGGGGUCUCUGUGCUAGGAGACUCUAUAGACUGCCUCCAGCCGCC | 0.696 |

Sample 5
Target: RING finger protein unkempt homolog, zinc fingers 1-6, SBP tag (UNK, Homo sapiens, UniProt Q9C0B0, residues 30-357)
Sequence of UniProt Q9C0B0 (30-357, looked up): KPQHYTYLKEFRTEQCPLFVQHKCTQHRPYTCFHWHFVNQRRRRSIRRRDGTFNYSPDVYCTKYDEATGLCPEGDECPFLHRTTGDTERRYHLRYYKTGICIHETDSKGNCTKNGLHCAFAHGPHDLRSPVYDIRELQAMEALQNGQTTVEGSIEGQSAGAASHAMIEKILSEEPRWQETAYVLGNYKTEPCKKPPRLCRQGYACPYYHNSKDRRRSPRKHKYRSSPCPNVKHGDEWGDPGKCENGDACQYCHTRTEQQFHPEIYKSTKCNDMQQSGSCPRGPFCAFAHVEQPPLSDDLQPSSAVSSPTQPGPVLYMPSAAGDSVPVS
Technique: RNA Bind-n-Seq
Form: RNA
Matrix: in vitro
Concentration: 100 nM
Notes: RNA with constant flanks, vertebrate orthologous sites, ends assumed
Reference: input RNA pool
Reading: higher = stronger binding
Shared flanks, not repeated: GGGAGUUCUACAGUCCGACGAUC … CAACAGAGGAUUGAGCAUCA
| Sequence | bound/input enrichment [ratio] |
| --- | --- |
| UAUUAGCGUCAUACCAGCAUAUUAACCUCUUGUCUGUGCACAGCUUCAAAUGUUACCGUCUAGUUAGAUUUUUAUUUAAAAUAUGAUAAACUGCUUUUCCCAAGACUUUUUUAAAAAGAA | 2.2 |
| CUUCCUCCAACUUCAGUUUUUCAGGUUGUAGCUGAUCCAUCUUUUCUUCUUCCCUUCCUCUCACUGUUCCUUUCCUUUCUGUCUGCCCAACUUCAGACACAUGAGUUCAUCCCCUUGCAU | 1.1 |
| UGUCUGCCUCAUUCUAAAAUUUACAUAGUAGACCAUUUGUCAUCCAUGCUGUCCCACAAAUAGUUUUUUGUUUACGAUUUAUGACAGGUUUAUGUUACUUCUAUUUGAAUUUCUAUAUUU | 1.61 |
| CUUUCUCCCCUGCUGAGAGGGAGUGUGGGGAGCCCAGGAAGACCCUCAACUGUUCCAAUCCAGUAUUUUUUUUUCUUUUUUAAAAAUCACUGUAUUUAUUAUGACGAUGGUGACUCCCCA | 0.435 |
| CCCUGUUAUCCUAAAAAUUGACUUUUUUUAACAGUUGUGUUGCCACCACUUGCUAAAAAAAAUUAGCAAUAUUAGAAUAAGAGUAAAAAUUAGAGUAAGAAAUCUUGCUCAUGGUUUUGC | 0.185 |
| AUCUCUCCUUUUAUAUGUCAAAAAAAGGCUUUGAAUUUUUAAAUAAUUGCUAGUUUUGAUUAGCUCUACCUUUAUGAAGUGUUAUAAUUCACCACAAACAGAUAUCUGUCUGAAUUACUU | 0.353 |
| UGAAAAUGACUUUAAGCACCAUUAAAGAAUAAAAAGGCCCCCAAAUAUAAGACUCCUAAAUAGCUAUUUUUGAAACUAAAUGUUUAGAUUUUGUAAAUGAGCUGUUGCCCACUACACAAU | 0.805 |
| AUUUAAAAUGUAGUUAGUUAUAUUUAAUGACCUCAUUCCUAAGUUCCUUUUUCGUUAAUGUAGCUUUAAUUUCUGUUAUUGCUGUUUGAAUAAUAUGAUUAAAUAGAAGGUUUGUGCCAG | 0.542 |
| AAAUAUACUUCAUGCCAUGGACUCCAUAUCGCACUGAUACUUUGAUAGAAUAUGCUUCUUUGGAGGACUUCCAAAAUGGACGCCAGCAGACAACGUAUAAACUCCCAAAUCGAGUGGAUG | 0.829 |
| GGGACGCUUUGAUGUAAAAAUUGAAGUUAAGAGCUGAUCACAAGCACAAAUCUUUCCCACUAGCCAUUUAAAAAAAGUUAAAAAAAAGAUACAAAAAACAAAAACCUACUAGUCUUGAAU | 2.19 |
| CUACGUCCCCUGGGACGGGACGGAUGUUUUUUUAUGUUUGGAGAUUUAAACUUGUGCUUGUAGAAGACUGUACCCUUUUUGUCUUUUUUUUUUUUUUUUGGAACCACCAACCUCCACCUC | 1.31 |

For quick reference, copied from above (sample 2):
| Substitution | binding free energy change |
| --- | --- |
| R38F | 0.0902 kcal/mol |
| V4S | 0.618 kcal/mol |
| I2L | -0.0878 kcal/mol |
| I16A | 0.554 kcal/mol |
| K47E | 0.0398 kcal/mol |
| V72P | 1.76 kcal/mol |
| T81C | 0.12 kcal/mol |
| Y61I | 0.0379 kcal/mol |
| A58P | 0.901 kcal/mol |
| G43V | 0.778 kcal/mol |
| G21V | 0.596 kcal/mol |
| G22H | 0.366 kcal/mol |
| K54S | 0.879 kcal/mol |
